Results collected from several papers.
Each numbered part is a random draw from the data of one study; scales do not carry over between parts. Changes are numbered by the printed parent chain.

Set 1
Target: CCNA2, cyclin fold, Cln2 fusion (human)
Technique: yeast growth competition, sequencing
Medium: yeast
Notes: weak parent motif
Reference: not given
Reading: higher = stronger binding
Starting sequence: DBF4 docking peptide (human); DDIVSKLVFDFVE
Change	normalised enrichment score
F9A	-0.438
D2A	-0.214
V12A	-0.197
V4A	-0.176
S5A	-0.688
D1A	-0.315

Set 2
Target: RNA binding protein fox-1 homolog 2, RRM domain, GST-SBP tag (RBFOX2, Homo sapiens, UniProt O43251-10, residues 100-194)
Technique: RNA Bind-n-Seq
Form: RNA
Medium: in vitro
Concentration: 365 nM
Notes: natural RNA segment, single round, ends assumed
Reference: no-protein control
Reading: higher = stronger binding
Constant ends, left off below: GGGAGUUCUACAGUCCGACGAUC … UGGAAUUCUCGGGUGCCAA
Target sequence (chain): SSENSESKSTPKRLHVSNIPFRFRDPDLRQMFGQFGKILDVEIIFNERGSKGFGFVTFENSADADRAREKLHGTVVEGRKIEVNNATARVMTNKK
Oligonucleotide	RBNS enrichment (R)
UGCACUUGCAUCUAAACAAAACUGUUGCAGUUUUUACUCUAUUUAUUUUGUUCCCCAUGUUUAUGAAAGUCCUGCACAGUUUCAAAGGCAUGGUAAAUAAUAUAUCAAUG	2.19
AAGUAUCUGUAAAUACAUGUUUAAAGAUGGAUUUUGUUUAAAAAAUCUAAAGGAACAAGUGUGUCGUGUGUCAAGCUGAUGAGGACUGUCAGACUGUGGCUUAGCUCAGU	0.503
CUGAACCAGAAUUACAUGUUAAUGAACAGUGUACCUUUUAACAGUGUAAAUCACGGAAUAUCCGUGAAGGGAUUUCUUAAUUUAUUUUUUACCGGUUGAUUGAAAUAUCA	0.449
GCUCCUGCAACAGUGCGGUCCCUGCCCGGAGAACUCAGGAGGCCUGCAGAAGAGAACUGAUUGGUGGUCGAAGCACCAUCUUCACAGAUGUUCAGGGGCAGUGGGGGGCU	1.25
UCCUUAGUCCUUGUUUGCUUUCUAAACCAAACUGGGAACACAUACAACAUUCAUCAUUUUACAUCCAGCUUUUUCACUUGACUUGUUUUCUCUUAAGCAUUUCUCCAUGC	0.516
UGAGGCCAGGCUGCUCCAAGGGCCGCAUGAGCCCUAAUCUGCCACAGAGCAACCCAGGUUAAACACAGCCCAUGCACAAAGCCACAGGCUAAAUCCUGUGGAAUUGUUUU	0.527
UGGCUGACCCGAGCGAGGUAUUAUCUCGGUCUUCAGCCGCUGGAGUUUCAGGGCUGGGCAGCAGGUUACUGGAGAGGCAGGCAAGAAGCGUCCUUACCUUCUCUCAUUCC	0.369
AGAUGGUCUUUCUGUGGAGAAUUUGUGGAACUUUAGUGUGGAGAACAAAGAAGGAGUUGGAGAUGAAAAAGUGGUACUGUGUCAAGGGAAGAUUUUUGUGAGUUUUCCAU	1.49
GAGAACAUUCAAUCUUGCCGUCACUAUUCAUCAAUGAAGAUUAACACUGAGAUCCAGAGAGGCUGGAUGACUUGCUCAAGUUCACCAGCAUGGUAGUGGCAAAGAGAGGU	0.847
UAAGCUAAAGGGCACUGUUUAUUUCAUGAAACCUUUAAACAUGUCAAAAUGUUUAGUAUAAGAACACUUAGUCUACAUGCUGGGGUGCCUAGCUUACACAGAGCCUGGGU	0.332
UCCUUUCUUUUUACACAUCCUACUGUCCCUUAGGGUAAAAUUUUCAGCAUUAAAUAAAACAUUUCAAAUAUAUUGUAUAUGGCUUUAGUUGUAAACUAUACUGCAUGCUG	5.11
ACCCUUGGGUGCAGGUCUUUGAAAACAAAGGUGCCAUGAUGGGCUGUUCUAACCCCCACCCCCACUGCCAGGUAUGGGCCAGCAGUUUCCUGCCAGAUAUUGCCCAGCGU	0.237

Set 3
Target: ABI1, truncated, D143A, DHFR fusion (Arabidopsis thaliana, UniProt P49597)
Technique: DHFR PCA, dose-response
Medium: yeast
Notes: Hill fit, mean, not affinity
With: (+)-ABA, dose series
Reading: lower = more sensitive
Starting sequence: PYL1, truncated, DHFR fusion (Arabidopsis thaliana, UniProt Q8VZS8); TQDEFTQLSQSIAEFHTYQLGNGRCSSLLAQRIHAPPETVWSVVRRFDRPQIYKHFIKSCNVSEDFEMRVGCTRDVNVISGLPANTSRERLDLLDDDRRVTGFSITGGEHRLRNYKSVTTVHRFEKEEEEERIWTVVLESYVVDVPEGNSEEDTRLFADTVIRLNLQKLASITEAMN
Change	ABA EC50
V136T	11.5 µM
H34I	6.55 µM
I133Q	1.86 µM
G148F	23.6 µM
E174L	35.1 µM
D96Q	127 µM
G148N	5.75 µM
P146W	330 µM
E38T	11 µM
R98N	3.63 µM
E174I	33.3 µM
Q10T	1.33 µM
R111S	64.9 µM

Mixed results
Substance	target	test	system	setting	scale	endpoint	result
PhoQ, residues 284 288 289 292 302 303 ASVMEA	PhoP, residues 12 14 15 18 19 SYFRT (Escherichia coli, UniProt P23836)	Sort-seq, measured: YFP reporter	E. coli	PhoQ-PhoP variant library, with: 10 µM Mg2+	reference: high Mg2+ state, higher = stronger signaling	fold induction	1.07
